Results collected from several papers.
Lines come from different studies, so protocols differ. Values after ≈ are worked out from the molar mass of the structure shown.
STK26: Serine/threonine-protein kinase 26 (STK26, Homo sapiens, UniProt Q9P289)
Sequence of UniProt Q9P289 (whole entry, looked up): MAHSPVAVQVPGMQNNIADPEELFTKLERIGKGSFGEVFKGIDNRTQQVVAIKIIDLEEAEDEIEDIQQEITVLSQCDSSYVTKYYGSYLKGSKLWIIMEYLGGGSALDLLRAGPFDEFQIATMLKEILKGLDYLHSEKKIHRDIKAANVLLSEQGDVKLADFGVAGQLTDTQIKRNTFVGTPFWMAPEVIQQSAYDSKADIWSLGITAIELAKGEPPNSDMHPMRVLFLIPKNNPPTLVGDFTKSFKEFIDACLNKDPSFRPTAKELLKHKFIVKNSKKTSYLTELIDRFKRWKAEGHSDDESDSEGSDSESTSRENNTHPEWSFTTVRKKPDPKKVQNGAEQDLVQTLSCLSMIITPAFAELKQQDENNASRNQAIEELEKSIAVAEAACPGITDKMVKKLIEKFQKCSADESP
Sequence of UniProt Q9H4A3 (whole entry, looked up): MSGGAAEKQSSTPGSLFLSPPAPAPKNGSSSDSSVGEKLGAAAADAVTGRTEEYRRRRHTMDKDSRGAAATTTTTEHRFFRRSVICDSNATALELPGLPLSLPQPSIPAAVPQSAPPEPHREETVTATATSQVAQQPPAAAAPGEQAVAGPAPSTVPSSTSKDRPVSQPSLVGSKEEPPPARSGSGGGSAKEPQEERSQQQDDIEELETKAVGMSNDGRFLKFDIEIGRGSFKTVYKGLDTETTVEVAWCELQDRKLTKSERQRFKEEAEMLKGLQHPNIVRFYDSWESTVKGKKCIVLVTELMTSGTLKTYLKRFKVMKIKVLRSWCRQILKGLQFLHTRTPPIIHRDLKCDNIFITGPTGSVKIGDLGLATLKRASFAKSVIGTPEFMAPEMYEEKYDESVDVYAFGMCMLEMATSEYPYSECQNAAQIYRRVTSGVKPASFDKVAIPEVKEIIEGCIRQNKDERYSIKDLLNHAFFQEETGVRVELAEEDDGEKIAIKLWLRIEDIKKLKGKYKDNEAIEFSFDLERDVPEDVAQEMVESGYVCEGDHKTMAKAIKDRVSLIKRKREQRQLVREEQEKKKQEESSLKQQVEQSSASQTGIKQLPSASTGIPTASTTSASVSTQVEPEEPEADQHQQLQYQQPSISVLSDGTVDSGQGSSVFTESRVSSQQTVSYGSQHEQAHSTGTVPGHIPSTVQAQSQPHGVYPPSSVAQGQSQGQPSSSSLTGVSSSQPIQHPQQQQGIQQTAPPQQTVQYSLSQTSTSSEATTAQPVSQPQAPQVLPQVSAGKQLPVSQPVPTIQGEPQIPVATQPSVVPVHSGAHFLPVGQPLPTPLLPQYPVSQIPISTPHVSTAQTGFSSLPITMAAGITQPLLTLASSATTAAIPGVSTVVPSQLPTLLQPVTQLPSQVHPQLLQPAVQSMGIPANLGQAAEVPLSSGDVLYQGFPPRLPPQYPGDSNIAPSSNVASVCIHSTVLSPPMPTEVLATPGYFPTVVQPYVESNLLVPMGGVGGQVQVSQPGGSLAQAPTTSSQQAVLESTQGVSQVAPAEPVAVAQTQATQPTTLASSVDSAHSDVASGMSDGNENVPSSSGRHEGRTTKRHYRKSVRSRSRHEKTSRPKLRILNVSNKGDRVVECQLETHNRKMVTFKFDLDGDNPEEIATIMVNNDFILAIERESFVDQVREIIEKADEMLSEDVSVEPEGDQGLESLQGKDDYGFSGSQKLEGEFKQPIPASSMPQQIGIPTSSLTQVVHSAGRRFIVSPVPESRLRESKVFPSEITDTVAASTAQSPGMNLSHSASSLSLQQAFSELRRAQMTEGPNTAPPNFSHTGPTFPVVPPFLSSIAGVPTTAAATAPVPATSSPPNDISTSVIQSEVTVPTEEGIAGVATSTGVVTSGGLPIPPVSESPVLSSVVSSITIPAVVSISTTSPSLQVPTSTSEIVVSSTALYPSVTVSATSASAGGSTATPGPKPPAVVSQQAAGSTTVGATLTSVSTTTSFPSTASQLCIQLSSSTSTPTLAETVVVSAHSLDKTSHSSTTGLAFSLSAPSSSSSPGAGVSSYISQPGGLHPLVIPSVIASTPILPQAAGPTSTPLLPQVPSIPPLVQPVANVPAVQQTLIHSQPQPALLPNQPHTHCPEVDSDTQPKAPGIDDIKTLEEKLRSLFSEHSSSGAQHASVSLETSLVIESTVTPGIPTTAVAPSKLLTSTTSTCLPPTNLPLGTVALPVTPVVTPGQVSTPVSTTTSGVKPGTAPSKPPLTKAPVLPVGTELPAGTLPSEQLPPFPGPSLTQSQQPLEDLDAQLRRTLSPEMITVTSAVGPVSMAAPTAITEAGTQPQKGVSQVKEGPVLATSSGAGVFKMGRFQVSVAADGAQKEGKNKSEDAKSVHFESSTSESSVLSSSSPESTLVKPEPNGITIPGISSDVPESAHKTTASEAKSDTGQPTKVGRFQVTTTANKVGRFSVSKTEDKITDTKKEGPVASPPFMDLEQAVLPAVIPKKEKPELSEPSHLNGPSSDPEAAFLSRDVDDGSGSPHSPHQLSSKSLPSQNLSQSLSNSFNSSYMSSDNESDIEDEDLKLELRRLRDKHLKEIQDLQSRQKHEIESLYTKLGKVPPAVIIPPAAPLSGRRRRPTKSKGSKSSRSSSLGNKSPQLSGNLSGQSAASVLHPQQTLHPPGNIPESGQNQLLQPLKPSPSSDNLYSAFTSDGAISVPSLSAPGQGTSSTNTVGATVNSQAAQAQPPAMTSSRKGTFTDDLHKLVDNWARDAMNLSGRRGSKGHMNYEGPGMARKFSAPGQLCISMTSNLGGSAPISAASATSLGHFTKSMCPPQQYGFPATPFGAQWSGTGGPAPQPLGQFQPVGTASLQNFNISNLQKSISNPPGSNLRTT
Sequence of UniProt Q9BXA7 (whole entry, looked up): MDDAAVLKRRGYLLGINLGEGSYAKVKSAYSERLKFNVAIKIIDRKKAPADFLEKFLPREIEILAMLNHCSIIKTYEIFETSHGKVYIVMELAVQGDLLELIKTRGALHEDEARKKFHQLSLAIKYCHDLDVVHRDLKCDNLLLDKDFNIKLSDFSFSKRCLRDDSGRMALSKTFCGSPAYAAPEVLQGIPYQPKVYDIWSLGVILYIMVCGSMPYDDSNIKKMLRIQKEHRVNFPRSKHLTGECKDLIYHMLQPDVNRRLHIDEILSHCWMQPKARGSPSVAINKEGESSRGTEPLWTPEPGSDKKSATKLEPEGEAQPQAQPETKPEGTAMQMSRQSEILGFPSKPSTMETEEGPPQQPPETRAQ
Sequence of UniProt Q9P286 (whole entry, looked up): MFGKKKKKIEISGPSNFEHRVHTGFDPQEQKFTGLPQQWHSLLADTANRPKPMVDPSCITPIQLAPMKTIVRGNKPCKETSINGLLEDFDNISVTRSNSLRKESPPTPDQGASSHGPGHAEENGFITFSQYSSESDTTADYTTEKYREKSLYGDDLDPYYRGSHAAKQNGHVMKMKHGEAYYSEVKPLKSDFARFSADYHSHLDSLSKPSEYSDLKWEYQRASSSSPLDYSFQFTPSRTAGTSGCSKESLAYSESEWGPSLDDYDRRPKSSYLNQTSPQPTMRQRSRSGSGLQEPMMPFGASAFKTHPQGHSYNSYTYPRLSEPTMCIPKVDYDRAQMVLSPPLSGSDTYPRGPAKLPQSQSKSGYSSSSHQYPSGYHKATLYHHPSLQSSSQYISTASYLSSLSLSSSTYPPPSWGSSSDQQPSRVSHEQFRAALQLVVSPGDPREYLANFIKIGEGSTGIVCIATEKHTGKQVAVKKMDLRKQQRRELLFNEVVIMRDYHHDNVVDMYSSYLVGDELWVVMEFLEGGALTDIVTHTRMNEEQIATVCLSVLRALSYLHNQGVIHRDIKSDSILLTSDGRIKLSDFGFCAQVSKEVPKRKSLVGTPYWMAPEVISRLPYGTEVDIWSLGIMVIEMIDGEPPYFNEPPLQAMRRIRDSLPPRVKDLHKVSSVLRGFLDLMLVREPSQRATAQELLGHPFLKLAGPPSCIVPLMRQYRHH
Sequence of UniProt Q9UQB9 (whole entry, looked up): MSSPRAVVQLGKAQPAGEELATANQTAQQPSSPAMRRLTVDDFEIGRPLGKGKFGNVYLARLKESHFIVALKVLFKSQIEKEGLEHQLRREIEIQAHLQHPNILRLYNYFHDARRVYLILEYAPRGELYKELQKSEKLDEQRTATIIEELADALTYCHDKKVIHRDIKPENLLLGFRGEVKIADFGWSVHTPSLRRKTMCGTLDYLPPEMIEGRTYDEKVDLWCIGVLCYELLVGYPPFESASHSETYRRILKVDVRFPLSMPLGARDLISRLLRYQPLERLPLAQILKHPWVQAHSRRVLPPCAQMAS

CN(Cc1ccc(C(C)(C)C)cc1)Cc1cccc2ccccc12 gave an MFC of 500 µg/mL (≈ 1570 µM) (Trichophyton mentagrophytes; microbial killing, broth dilution; ATCC18748; 72 h).
Cc1noc(NS(=O)(=O)c2ccc(N=NN(C)O)cc2)c1C gave an inhibition of 22.8% (DPPH scavenging, absorbance; 180 µg/mL).
COc1cc(-c2cncc3c2CN(C)Cc2cc(N4CCNCC4)ccc2-3)cc(OC)c1OC has a remaining activity of 92% (Aurora kinase C (AURKC, Homo sapiens, UniProt Q9UQB9); enzyme activity, inhibitor; 1 µM).
For O=C(O)c1ccc(O)cc1, the inhibition was 100% (Helicobacter pylori; microbial growth, broth dilution; 7.81 µg/mL).
With C1=C/COCc2cc(ccc2OCCN2CCCC2)Nc2nccc(n2)-c2cccc(c2)COC/1 the remaining signal was 81% (Serine/threonine-protein kinase WNK1 (WNK1, Homo sapiens, UniProt Q9H4A3); cell-free assay; 0.1 µM).
For COc1ccc(-c2cc(=O)c3c(O)cc(O[C@@H]4O[C@H](CO)[C@@H](O)[C@H](O)[C@H]4O)cc3o2)cc1O, the inhibition was 100% (Helicobacter pylori; microbial growth, broth dilution; 7.81 µg/mL).
CC1(C)CC[C@]2(C(=O)OCC(=O)c3ccccc3)CC[C@]3(C)C(=CC[C@@H]4[C@@]5(C)CC[C@H](O)[C@@](C)(CO)[C@@H]5CC[C@]43C)[C@@H]2C1 has an inhibition of 98.4% (Leishmania mexicana; parasite growth, resazurin; 50 µM, amastigote).
The inhibition of Cc1ccc(N(O)N=Nc2ccc(S(=O)(=O)Nc3onc(C)c3C)cc2)cc1 is reported as 31% (DPPH scavenging, absorbance; 240 µg/mL).
For CN(Cc1ccc(C2(C(F)(F)F)CC2)cc1)Cc1cccc2ccccc12, the inhibition zone was ≥ 55 mm (Trichophyton mentagrophytes; microbial growth, disc diffusion; ATCC18748; 0.128 µg/mL, 72 h).
CC1(C)CC[C@]2(NC(=O)NCCCn3ccnc3)CC[C@]3(C)C(=CC[C@@H]4[C@@]5(C)CC[C@@H]6OC(C)(C)OC[C@@]6(C)[C@@H]5CC[C@]43C)[C@@H]2C1 has an inhibition of 97.3% (Leishmania mexicana; parasite growth, resazurin; 50 µM, amastigote).
With Cc1cc([C@@H](C)Nc2ccccc2C(=O)O)c2nc(N3CCC(F)(F)CC3)c(C#N)c(=O)n2c1 the remaining binding was 71% (Testis-specific serine/threonine-protein kinase 1 (TSSK1B, Homo sapiens, UniProt Q9BXA7); binding, competition with immobilised ligand; 10 µM).
O=c1cc(-c2ccc(O)cc2)oc2cc(O)cc(O)c12 gave an inhibition of 42.6% (Helicobacter pylori; microbial growth, broth dilution; 0.24 µg/mL).
For C=CC(=O)N1CCC(COCC(=O)N2CCN(c3nc(-c4cnc(N)nc4C(F)F)nc(N4CCOC[C@@H]4C)n3)CC2)CC1, the remaining binding was 100% (STK26; binding, competition with immobilised ligand; 1 µM).
For Cc1cc(C)c(C#N)c(SCC(=O)N2CCN(C)CC2)n1, the EC50 was > 64 µM (Trypanosoma brucei; parasite growth, resazurin; RHODESIENSE).
With CNc1ncc2c(/C=C/C(=O)N3CCC(OC)CC3)nn(Cc3cccc(C(F)(F)F)c3)c2n1 the remaining activity was 90% (STK26; enzyme activity, inhibitor, radiometric; 1 µM).
Cc1cc(C)c(C#N)c(SCC(=O)c2ccc(Cl)cc2Cl)n1 gave an EC50 of 39.9 µM (Trypanosoma brucei; parasite growth, resazurin).
The remaining binding of CCCCC(=O)Nc1ccc(-c2ccc3ncn(CCC)c(=O)c3c2)cn1 is reported as 90% (Serine/threonine-protein kinase PAK 5 (PAK5, Homo sapiens, UniProt Q9P286); binding, competition with immobilised ligand; 0.5 µM).
N#Cc1cccnc1SCC(=O)c1ccc(F)cc1 has an EC50 of 54.4 µM (Trypanosoma brucei; parasite growth, resazurin; RHODESIENSE).
CC(=O)OC[C@H](OC(C)=O)[C@H](OC(C)=O)[C@@H](OC(C)=O)[C@@H]1OC[C@@]2(C)[C@@H]3CC[C@]4(C)[C@H](CC=C5[C@@H]6CC(C)(C)CC[C@]6(C(=O)O)CC[C@]54C)[C@@]3(C)CC[C@@H]2O1 has an inhibition of 95.8% (Leishmania mexicana; parasite growth, resazurin; 50 µM, amastigote).
The EC50 of Cc1cc(C)c(C#N)c(SCC(=O)N2CCOCC2)n1 is reported as > 64 µM (Trypanosoma brucei; parasite growth, resazurin; RHODESIENSE).
For COc1cc([C@H]2OC[C@H]3[C@@H]2CO[C@@H]3c2cc(OC)c(O)c(OC)c2)cc(OC)c1O, the inhibition was 100% (Helicobacter pylori; microbial growth, broth dilution; 3.9 µg/mL).
With Cc1cc(C)c(C#N)c(SCC(N)c2ccccc2)n1 (stereo not drawn) the EC50 was 14.8 µM (Trypanosoma brucei; parasite growth, resazurin).
For CN(C)CCCNC(=O)N[C@]12CCC(C)(C)C[C@H]1C1=CC[C@@H]3[C@@]4(C)CC[C@@H]5OC(C)(C)OC[C@@]5(C)[C@@H]4CC[C@@]3(C)[C@]1(C)CC2, the inhibition was 97.1% (Leishmania mexicana; parasite growth, resazurin; 50 µM, amastigote).
With COc1cc(-c2cc(=O)c3c(O)cc(O)cc3o2)ccc1O the inhibition was 100% (Helicobacter pylori; microbial growth, broth dilution; 15.63 µg/mL).

For quick reference, copied from above:
With C1=C/COCc2cc(ccc2OCCN2CCCC2)Nc2nccc(n2)-c2cccc(c2)COC/1 the remaining signal was 81% (Serine/threonine-protein kinase WNK1 (WNK1, Homo sapiens, UniProt Q9H4A3); cell-free assay; 0.1 µM).
